# Measurements of several laboratories.
# Protocols differ between the studies behind these lines. Values joined by “and” are separate records of one study, mostly repeats; a detail may differ. Numbers after ± are the reported error.
# MAP2K1: MAP2K1 (Homo sapiens, UniProt Q02750)
# IL13: IL13 fragment (Homo sapiens)
# B1: BRAF kinase 448-723 K723G/P722S/S720E/L716E/S713E/Q709R/L706S/A688R/Y673S/R671A/K630S/V600E/L588N/Q562R (Homo sapiens, UniProt P15056); sequence looked up; chain DDWEIPDGQITVGQRIGSGSFGTVYKGKWHGDVAVKMLNVTAPTPQQLQAFKNEVGVLRKTRHVNILLFMGYSTKPQLAIVTQWCEGSSLYHHLHASETKFEMKKLIDIARQTARGMDYLHAKSIIHRDLKSNNIFLHEDNTVKIGDFGLATEKSRWSGSHQFEQLSGSILWMAPEVIRMQDSNPYSFQSDVYAFGIVLYELMTGQLPYSNINNRDQIIFMVGAGSLSPDLSKVRSNCPKRMKRLMAECLKKKRDERPSFPRILAEIEELARELSG
# B2: PPARG AF-1 1-136 (Homo sapiens, UniProt P37231-1); pT75, pS112; chain MGETLGDSPIDPESDSFTDTLSANISQEMTMVDTEMPFWPTNFGISSVDLSVMEDHSHSFDIKPFTTVDFSSISTPHYEDIPFTRTDPVVADYKYDLKLQEYQSAIKVEPASPPYYSEKTQLYNKPHEEPSNSLMA
# B3: EFR3B 716-787 (Homo sapiens, UniProt Q9Y2G0); chain VPAEEITYETLKKAIVDSVAVEEQERERRRQVVEKFQKAPFEEIAAHCGARASLLQSKLNQIFEITIRPPPS
# B4: KLRK1 73-216 (Homo sapiens, UniProt P26718); sequence looked up; chain IWSAVFLNSLFNQEVQIPLTESYCGPCPKNWICYKNNCYQFFDESKNWYESQASCMSQNASLLKVYSKEDQDLLKLVKSYHWMGLVHIPTNGSWQWEDGSILSPNLLTIIEMQKGDCALYASSFKGYIENCSTPNTYICMQRTV
# B5: ANGPT1 283-498 A451D (Homo sapiens, UniProt Q15389); chain FRDCADVYQAGFNKSGIYTIYINNMPEPKKVFCNMDVNGGGWTVIQHREDGSLDFQRGWKEYKMGFGNPSGEYWLGNEFIFAITSQRQYMLRIELMDWEGNRAYSQYDRFHIGNEKQNYRLYLKGHTGTAGKQSSLILHGADFSTKDADNDNCMCKCALMLTGGWWFDDCGPSNLNGMFYTAGQNHGKLNGIKWHYFKGPSYSLRSTTMMIRPLDF
# B6: PUX5 345-421 (Arabidopsis thaliana, UniProt Q7Y175); chain APTTSIQLRLADGTRLVSRFNNHHTVRDVRGFIDASRPGGSKEYQLLTMGFPPKQLTELDQTIEQAGIANAVVIQKF
# B7: BRAF kinase 442-724 V600E (Homo sapiens, UniProt P15056); sequence looked up; chain GRRDSSDDWEIPDGQITVGQRIGSGSFGTVYKGKWHGDVAVKMLNVTAPTPQQLQAFKNEVGVLRKTRHVNILLFMGYSTKPQLAIVTQWCEGSSLYHHLHIIETKFEMIKLIDIARQTAQGMDYLHAKSIIHRDLKSNNIFLHEDLTVKIGDFGLATEKSRWSGSHQFEQLSGSILWMAPEVIRMQDKNPYSFQSDVYAFGIVLYELMTGQLPYSNINNRDQIIFMVGRGYLSPDLSKVRSNCPKAMKRLMAECLKKKRDERPLFPQILASIELLARSLPKI
# B8: EFR3A 721-791 (Homo sapiens, UniProt Q14156); chain SNTEEITFEALKKAIDTSGMEEQEKEKRRLVIEKFQKAPFEEIAAQCESKANLLHDRLAQILELTIRPPPS
# B9: TEPSIN R226A/E227A/D230A/E233A/R234A/E236A (Homo sapiens, UniProt Q96N21); chain MAAAPPLRDRLSFLHRLPILLKGTSDDDVPCPGYLFEEIAKISHESPGSSQCLLEYLLSRLHSSSGHGKLKVLKILLYLCSHGSSFFLLILKRNSAFIQEAAAFAGPPDPLHGNSLYQKVRAAAQDLGSTLFSDTVLPLAPSQPLGTPPATGMGSQARPHSTLQGFGYSKEHGRTAVRHQPGQAGGGWDELDSGPSSQNSSQNSDLSRVSDSGSHSGSDSHSGASAAPGALAAAVAVVALSDCQQELSLVRTVTRGPRAFLSREEAQHFIKACGLLNCEAVLQLLTCHLRGTSECTQLRALCAIASLGSSDLLPQEHILLRTRPWLQELSMGSPGPVTNKATKILRHFEASCGQLSPARGTSAEPGPTAALPGPSDLLTDAVPLPGSQVFLQPLSSTPVSSRSPAPSSGMPSSPVPTPPPDASPIPAPGDPSEAEARLAESRRWRPERIPGGTDSPKRGPSSCAWSRDSLFAGMELVACPRLVGAGAAAGESCPDAPRAPQTSSQRTAAKEPPGSEPSAFAFLNA
# B10: Lep (Mus musculus, UniProt P41160); sequence looked up; chain VPIQKVQDDTKTLIKTIVTRINDISHTQSVSAKQRVTGLDFIPGLHPILSLSKMDQTLAVYQQVLTSLPSQNVLQIANDLENLRDLLHLLAFSKSCSLPQTSGLQKPESLDGVLEASLYSTEVVALSRLQGSLQDILQQLDVSPEC
# B11: C1S 438-688 S632A (Homo sapiens, UniProt P09871); chain IIGGSDADIKNFPWQVFFDNPWAGGALINEYWVLTAAHVVEGNREPTMYVGSTSVQTSRLAKSKMLTPEHVFIHPGWKLLEVPEGRTNFDNDIALVRLKDPVKMGPTVSPICLPGTSSDYNLMDGDLGLISGWGRTEKRDRAVRLKAARLPVAPLRKCKEVKVEKPTADAEAYVFTPNMICAGGEKGMDSCKGDAGGAFAVQDPNDKTKFYAAGLVSWGPQCGTYGLYTRVKNYVDWIMKTMQENSTPRED
# B12: LLGL2 13-978 (Homo sapiens, UniProt Q6P1M3); phosphorylated; chain RERLKRDLFQFNKTVEHGFPHQPSALGYSPSLRILAIGTRSGAIKLYGAPGVEFMGLHQENNAVTQIHLLPGQCQLVTLLDDNSLHLWSLKVKGGASELQEDESFTLRGPPGAAPSATQITVVLPHSSCELLYLGTESGNVFVVQLPAFRALEDRTISSDAVLQRLPEEARHRRVFEMVEALQEHPRDPNQILIGYSRGLVVIWDLQGSRVLYHFLSSQQLENIWWQRDGRLLVSCHSDGSYCQWPVSSEAQQPEPLRSLVPYGPFPCKAITRILWLTTRQGLPFTIFQGGMPRASYGDRHCISVIHDGQQTAFDFTSRVIGFTVLTEADPAATFDDPYALVVLAEEELVVIDLQTAGWPPVQLPYLASLHCSAITCSHHVSNIPLKLWERIIAAGSRQNAHFSTMEWPIDGGTSLTPAPPQRDLLLTGHEDGTVRFWDASGVCLRLLYKLSTVRVFLTDTDPNENFSAQGEDEWPPLRKVGSFDPYSDDPRLGIQKIFLCKYSGYLAVAGTAGQVLVLELNDEAAEQAVEQVEADLLQDQEGYRWKGHERLAARSGPVRFEPGFQPFVLVQCQPPAVVTSLALHSEWRLVAFGTSHGFGLFDHQQRRQVFVKCTLHPSDQLALEGPLSRVKSLKKSLRQSFRRMRRSRVSSRKRHPAGPPGEAQEGSAKAERPGLQNMELAPVQRKIEARSAEDSFTGFVRTLYFADTYLKDSSRHCPSLWAGTNGGTIYAFSLRVPPAERRMDEPVRAEQAKEIQLMHRAPVVGILVLDGHSVPLPEPLEVAHDLSKSPDMQGSHQLLVVSEEQFKVFTLPKVSAKLKLKLTALEGSRVRRVSVAHFGSRRAEDYGEHHLAVLTNLGDIQVVSLPLLKPQVRYSCIRREDVSGIASCVFTKYGQGFYLISPSEFERFSLSTKWLVEPRCLVDSAETKNHRPGNGAGPKKAPSRARNSGTQSDGEEKQPGLVMER
# B13: IgG L:I27A; V domains shown; VH QVQLVQSGAEVKKPGASVKVSCKASGYTFTNYGLSWVRQAPGQGLEWMGWISANNGDTNYGQEFQGRVTMTTDTSTSTAYMELRSLRSDDTAVYYCARDSSSSWARWFFDLWGRGTLVTVSS; VL SYVLTQPPSVSVAPGKTARITCGGNAIGSKLVHWYQQKPGQAPVLVIYDDGDRPSGIPERFSGSNSGNTATLTISRVEAGDEADYYCQVWDTGSDPVVFGGGTKLTVL
# B14: IgG H:S99A; V domains shown; VH QVQLVQSGAEVKKPGASVKVSCKASGYTFTNYGLSWVRQAPGQGLEWMGWISANNGDTNYGQEFQGRVTMTTDTSTSTAYMELRSLRSDDTAVYYCARDSSSAWARWFFDLWGRGTLVTVSS; VL SYVLTQPPSVSVAPGKTARITCGGNIIGSKLVHWYQQKPGQAPVLVIYDDGDRPSGIPERFSGSNSGNTATLTISRVEAGDEADYYCQVWDTGSDPVVFGGGTKLTVL
# B15: TGM1 (Heligmosomoides polygyrus); chain GCMPFSDEAATYKYVAKGPKNIEIPAQIDNSGMYPDYTHVKRFCKGLHGEDTTGWFVGICLASQWYYYEGVQECDDRRCSPLPTNDTVSFEYLKATVNPGIIFNITVHPDASGKYPELTYIKRICKNFPTDSNVQGHIIGMCYNAEWQFSSTPTCPASGCPPLPDDGIVFYEYYGYAGDRHTVGPVVTKDSSGNYPSPTHARRRCRALSQEADPGEFVAICYKSGTTGESHWEYYKNIGKCPDPRCKPLEANESVHYEYFTMTNETDKKKGPPAKVGKSGKYPEHTCVKKVCSKWPYTCSTGGPIFGECIGATWNFTALMECINARGCSSDDLFDKLGFEKVIVRKGEGSDSYKDDFARFYATGSKVIAECGGKTVRLECSNGEWHEPGTKTVHRCTKDGIRTL
# UniProt Q02763, sequence (whole entry, looked up): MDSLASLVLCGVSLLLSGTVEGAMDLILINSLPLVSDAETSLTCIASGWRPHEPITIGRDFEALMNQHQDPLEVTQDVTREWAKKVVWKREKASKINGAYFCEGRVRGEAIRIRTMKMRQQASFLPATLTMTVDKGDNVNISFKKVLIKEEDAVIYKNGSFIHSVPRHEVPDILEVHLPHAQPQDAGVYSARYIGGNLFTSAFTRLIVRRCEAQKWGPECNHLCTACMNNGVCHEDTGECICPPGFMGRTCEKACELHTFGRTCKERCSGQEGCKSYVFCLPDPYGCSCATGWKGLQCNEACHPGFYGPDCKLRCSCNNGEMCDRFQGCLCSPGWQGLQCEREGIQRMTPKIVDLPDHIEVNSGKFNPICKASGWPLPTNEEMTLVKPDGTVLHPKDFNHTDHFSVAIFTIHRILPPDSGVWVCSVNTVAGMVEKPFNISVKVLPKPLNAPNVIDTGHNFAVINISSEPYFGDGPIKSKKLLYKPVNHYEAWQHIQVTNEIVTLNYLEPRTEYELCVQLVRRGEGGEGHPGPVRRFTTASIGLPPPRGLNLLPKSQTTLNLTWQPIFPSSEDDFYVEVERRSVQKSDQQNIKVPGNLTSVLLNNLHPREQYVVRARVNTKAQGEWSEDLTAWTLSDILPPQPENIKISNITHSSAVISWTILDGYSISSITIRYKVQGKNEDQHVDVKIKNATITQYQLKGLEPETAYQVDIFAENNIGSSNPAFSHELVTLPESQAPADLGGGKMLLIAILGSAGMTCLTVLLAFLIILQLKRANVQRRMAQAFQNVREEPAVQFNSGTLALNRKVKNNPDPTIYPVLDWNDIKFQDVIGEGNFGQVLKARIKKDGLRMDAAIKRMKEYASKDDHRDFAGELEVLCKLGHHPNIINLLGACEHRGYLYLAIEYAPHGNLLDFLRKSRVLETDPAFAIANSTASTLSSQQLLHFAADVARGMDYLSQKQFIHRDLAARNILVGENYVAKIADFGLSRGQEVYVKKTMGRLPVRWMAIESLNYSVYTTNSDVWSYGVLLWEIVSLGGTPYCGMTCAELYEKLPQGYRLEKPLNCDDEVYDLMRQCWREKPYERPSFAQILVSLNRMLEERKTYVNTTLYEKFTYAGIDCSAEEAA
# UniProt Q29983, sequence (whole entry, looked up): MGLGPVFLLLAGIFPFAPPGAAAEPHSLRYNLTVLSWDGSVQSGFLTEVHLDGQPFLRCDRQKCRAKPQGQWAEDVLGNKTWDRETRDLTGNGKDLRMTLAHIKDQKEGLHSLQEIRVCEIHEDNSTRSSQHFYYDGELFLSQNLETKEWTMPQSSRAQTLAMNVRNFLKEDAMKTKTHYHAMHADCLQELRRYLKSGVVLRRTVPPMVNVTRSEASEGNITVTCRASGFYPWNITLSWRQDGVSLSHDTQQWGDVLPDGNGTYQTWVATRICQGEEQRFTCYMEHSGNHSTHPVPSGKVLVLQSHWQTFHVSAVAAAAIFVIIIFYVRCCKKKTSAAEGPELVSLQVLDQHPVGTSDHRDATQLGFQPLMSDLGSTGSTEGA
# UniProt P05155, sequence (whole entry, looked up): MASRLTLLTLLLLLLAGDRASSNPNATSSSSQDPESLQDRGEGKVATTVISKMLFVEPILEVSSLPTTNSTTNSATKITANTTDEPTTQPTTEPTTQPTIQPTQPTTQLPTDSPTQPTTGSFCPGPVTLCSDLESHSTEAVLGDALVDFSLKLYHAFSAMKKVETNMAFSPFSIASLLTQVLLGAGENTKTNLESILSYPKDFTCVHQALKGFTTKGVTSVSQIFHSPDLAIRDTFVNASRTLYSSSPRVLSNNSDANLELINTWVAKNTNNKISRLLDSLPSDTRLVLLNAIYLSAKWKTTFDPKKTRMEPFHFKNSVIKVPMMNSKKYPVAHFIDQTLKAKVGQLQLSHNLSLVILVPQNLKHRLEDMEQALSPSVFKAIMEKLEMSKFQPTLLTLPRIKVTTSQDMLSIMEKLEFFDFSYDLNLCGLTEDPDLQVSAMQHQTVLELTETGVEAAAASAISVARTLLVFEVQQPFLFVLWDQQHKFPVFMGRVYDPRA
# UniProt P54609, sequence (whole entry, looked up): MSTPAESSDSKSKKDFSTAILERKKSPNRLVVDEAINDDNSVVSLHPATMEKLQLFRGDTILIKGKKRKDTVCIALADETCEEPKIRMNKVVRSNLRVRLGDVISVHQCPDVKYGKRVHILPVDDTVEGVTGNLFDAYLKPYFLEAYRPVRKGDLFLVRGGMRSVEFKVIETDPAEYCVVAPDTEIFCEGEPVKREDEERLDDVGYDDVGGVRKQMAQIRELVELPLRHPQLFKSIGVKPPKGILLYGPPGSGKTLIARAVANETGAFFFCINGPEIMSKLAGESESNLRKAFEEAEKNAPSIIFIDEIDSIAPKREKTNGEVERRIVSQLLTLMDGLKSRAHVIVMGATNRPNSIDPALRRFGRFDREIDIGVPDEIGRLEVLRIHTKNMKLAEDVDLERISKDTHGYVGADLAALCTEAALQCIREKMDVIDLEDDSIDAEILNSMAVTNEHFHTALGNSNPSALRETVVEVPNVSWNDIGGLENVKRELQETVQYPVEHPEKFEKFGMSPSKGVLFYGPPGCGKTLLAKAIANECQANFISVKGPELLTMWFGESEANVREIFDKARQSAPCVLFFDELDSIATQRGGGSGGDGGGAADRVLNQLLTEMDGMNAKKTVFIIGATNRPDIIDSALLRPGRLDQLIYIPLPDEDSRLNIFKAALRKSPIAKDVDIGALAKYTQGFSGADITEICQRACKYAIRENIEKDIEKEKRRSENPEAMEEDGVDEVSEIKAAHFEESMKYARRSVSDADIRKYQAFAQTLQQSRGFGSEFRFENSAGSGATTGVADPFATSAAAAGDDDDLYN
# UniProt P48356, sequence (whole entry, unmodified, looked up): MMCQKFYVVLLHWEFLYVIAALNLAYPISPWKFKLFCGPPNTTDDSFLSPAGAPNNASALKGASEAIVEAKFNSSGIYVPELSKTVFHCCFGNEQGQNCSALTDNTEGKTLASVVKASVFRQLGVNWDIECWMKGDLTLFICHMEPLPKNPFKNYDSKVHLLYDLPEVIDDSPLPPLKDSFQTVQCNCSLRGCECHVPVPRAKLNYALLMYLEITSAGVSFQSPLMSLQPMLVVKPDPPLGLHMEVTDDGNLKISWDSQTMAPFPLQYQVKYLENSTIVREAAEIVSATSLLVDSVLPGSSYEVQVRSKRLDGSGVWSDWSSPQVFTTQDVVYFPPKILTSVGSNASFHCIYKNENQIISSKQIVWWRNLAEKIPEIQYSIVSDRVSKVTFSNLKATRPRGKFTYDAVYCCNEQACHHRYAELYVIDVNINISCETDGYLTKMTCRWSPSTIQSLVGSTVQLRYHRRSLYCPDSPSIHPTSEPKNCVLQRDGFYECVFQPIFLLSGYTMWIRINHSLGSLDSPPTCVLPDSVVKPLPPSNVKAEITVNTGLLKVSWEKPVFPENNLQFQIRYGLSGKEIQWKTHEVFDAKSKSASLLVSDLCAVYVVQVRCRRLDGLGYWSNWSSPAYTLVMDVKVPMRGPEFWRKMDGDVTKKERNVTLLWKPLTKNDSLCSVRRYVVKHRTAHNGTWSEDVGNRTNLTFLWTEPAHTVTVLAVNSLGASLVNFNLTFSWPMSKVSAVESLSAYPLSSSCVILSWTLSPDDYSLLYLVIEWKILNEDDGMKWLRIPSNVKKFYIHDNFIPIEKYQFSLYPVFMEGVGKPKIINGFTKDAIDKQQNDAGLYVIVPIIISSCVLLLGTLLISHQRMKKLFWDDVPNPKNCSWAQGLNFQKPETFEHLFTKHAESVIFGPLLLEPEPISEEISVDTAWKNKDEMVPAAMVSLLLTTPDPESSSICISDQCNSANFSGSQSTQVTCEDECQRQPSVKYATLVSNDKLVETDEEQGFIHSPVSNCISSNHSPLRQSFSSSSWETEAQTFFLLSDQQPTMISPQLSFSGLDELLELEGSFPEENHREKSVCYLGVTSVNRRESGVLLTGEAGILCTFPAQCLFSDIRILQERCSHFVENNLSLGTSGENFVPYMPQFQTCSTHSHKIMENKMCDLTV
# UniProt P97287, sequence (whole entry, looked up): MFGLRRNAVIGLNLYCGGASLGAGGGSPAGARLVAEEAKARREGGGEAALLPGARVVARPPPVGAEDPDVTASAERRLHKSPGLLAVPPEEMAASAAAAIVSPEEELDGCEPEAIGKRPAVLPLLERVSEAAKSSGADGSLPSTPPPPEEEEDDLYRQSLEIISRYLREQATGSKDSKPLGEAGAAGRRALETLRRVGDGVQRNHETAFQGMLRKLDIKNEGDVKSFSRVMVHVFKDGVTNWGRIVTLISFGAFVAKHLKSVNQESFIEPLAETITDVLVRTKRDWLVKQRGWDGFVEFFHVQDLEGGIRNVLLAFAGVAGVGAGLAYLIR
Substance,target or system,assay,test system,setting,endpoint,result
colistin,Salmonella enterica Derby,broth microdilution,clinical isolate RKI 436/14,,MIC,≤ 0.5 µg/mL
B1,MAP2K1,BLI,,,koff,0.00169 s⁻¹
B2 (PPARG AF-1 1-136),"PIN1 (Homo sapiens, UniProt Q13526)",NMR,,,koff,659 s⁻¹ and 1430 s⁻¹
B3 (EFR3B 716-787),TTC7B/FAM126A FAM126A 1-308,BLI,,,koff,0.000219 s⁻¹
"MBL-A mature, hydroxylysine, hydroxyproline in collagen (Rattus norvegicus, UniProt P19999)",C1r/C1s CUB1-EGF-CUB2 (Homo sapiens),SPR,,together with: CaCl2 140 mM,koff,0.00268 s⁻¹
B4 (KLRK1 73-216),"MICA high-affinity allele 24-307 (Homo sapiens, UniProt Q29983)",SPR,Fc fusion,,koff,0.0033 s⁻¹
B5 (ANGPT1 283-498 A451D),"TEK 23-748 (Homo sapiens, UniProt Q02763)",SPR,,,koff,0.102 s⁻¹
B6 (PUX5 345-421),"CDC48A 1-190 (Arabidopsis thaliana, UniProt P54609)",BLI,,25 °C,koff,0.13 ± 0.01 s⁻¹
B7 (BRAF kinase 442-724 V600E),MAP2K1,BLI,,,koff,0.00067 s⁻¹
B8 (EFR3A 721-791),PI4KA/TTC7A/FAM126A TTC7A/FAM126A,BLI,,,koff,0.000273 s⁻¹
B9,MAP1LC3B fragment (Homo sapiens),BLI,,,koff,0.083 s⁻¹ and 0.076 s⁻¹ and 0.079 s⁻¹ and 0.078 s⁻¹
B10 (Lep),"Lepr 22-839 (Mus musculus, UniProt P48356)",SPR,,,koff,0.033 s⁻¹
B11 (C1S 438-688 S632A),"SERPING1 111-500 (Homo sapiens, UniProt P05155)",SPR,,together with: Ca2+,koff,0.0874 s⁻¹
B12 (LLGL2 13-978),"PRKCI/PARD6B 1-596, activation loop phosphorylated",BLI,,together with: AMP-PNP,koff,0.0107 s⁻¹
B13 (IgG L:I27A),IL13,SPR,antibody,,koff,0.00257 s⁻¹
"ACAWCLRGTICCSG (MP5.4.3; Cys2-Cys12, Cys5-Cys11 disulfides)","CTRB1 α-chymotrypsin (Bos taurus, UniProt P00766)",SPR,peptide,,koff,0.0041 s⁻¹
B14 (IgG H:S99A),IL13,SPR,antibody,,koff,0.000346 s⁻¹
B15 (TGM1),TGFBR1 extracellular domain (Homo sapiens),SPR,,,koff,0.0044 s⁻¹
"EEEWAREIGAQLRRAGDDLNAQYERRR (PUMA residues 130-156 M144A/A145G; N-acetyl, C-terminal amide)","Mcl1 152-308 (Mus musculus, UniProt P97287)",SPR,peptide,,koff,0.0002 ± 2e-05 s⁻¹

# Some of these lines once more:
Substance,target or system,assay,test system,setting,endpoint,result
B6 (PUX5 345-421),"CDC48A 1-190 (Arabidopsis thaliana, UniProt P54609)",BLI,,25 °C,koff,0.13 ± 0.01 s⁻¹
B7 (BRAF kinase 442-724 V600E),MAP2K1,BLI,,,koff,0.00067 s⁻¹
